Results from different studies.
Each line is one published result; not all experiments were run side by side. ± marks the error that the study gave.
rep nsp14 N7-methyltransferase: Replicase polyprotein 1ab, nsp14 N7-methyltransferase (rep, Severe acute respiratory syndrome coronavirus 2, UniProt P0DTD1)
rep main protease: Replicase polyprotein 1ab, main protease (rep, Severe acute respiratory syndrome coronavirus 2, UniProt P0DTD1)
rep papain-like protease: Replicase polyprotein 1ab, papain-like protease (rep, Severe acute respiratory syndrome coronavirus 2, UniProt P0DTD1)
rep nsp13 helicase: Replicase polyprotein 1ab, nsp13 helicase (rep, Severe acute respiratory syndrome coronavirus 2, UniProt P0DTD1)

Oc1cc(O)cc(/C=C/c2ccc(O)c(O)c2)c1
Hill slope (rep nsp14 N7-methyltransferase; N7-methyltransferase activity, inhibitor, Py-FLINT): 1.42 ± 0.14

CC(C)CN(C[C@@H](O)[C@H](Cc1ccccc1)NC(=O)O[C@H]1CO[C@H]2OCC[C@H]21)S(=O)(=O)c1ccc(N)cc1.CCO
inhibition (rep main protease; reporter gene (Gaussia luciferase), inhibitor; 20 µM): 0.32%

CC1CC(c2ccc(C(=O)O)cc2)=NN1c1ccccc1.N (stereo not shown)
lipophilic ligand efficiency (Replicase polyprotein 1ab, nsp14 methyltransferase (rep, Severe acute respiratory syndrome coronavirus 2, UniProt P0DTD1)): 0.9

CCC(C(=O)Nc1cc(NC2CCNC2)ccc1C)n1cc(Cl)cc2nc(SCc3ccc(F)cc3)nc1-2 (stereo not shown)
koff (rep papain-like protease; binding): 0.028 ± 0.002 s⁻¹

O.c1cnc2c(c1)ccc1cccnc12
inhibition (rep main protease; reporter gene (Gaussia luciferase), inhibitor; 20 µM): -3.8%

O=c1c2ccccc2[se]n1-c1ccccc1
melting temperature (rep main protease; thermal shift; SARS-CoV-2; main protease): 42 °C

O=C(Oc1cncc(Br)c1)c1cccc2[nH]ccc12
kinact/Ki (rep main protease; inhibitor, biochemical): 24000 M⁻¹ s⁻¹

CNC(=O)[C@@H](NC(=O)[C@H](CC(C)C)[C@H](O)C(=O)NO)C(C)(C)C
complete inhibition concentration (snake venom metalloproteinase (Daboia russelii venom); protease activity, inhibitor; with: azocasein substrate): 0.1 µM

Cc1cc(N[C@H]2C[C@H]3CC[C@@H]2N(C(=O)c2cnc4[nH]cc(C)c4c2)C3)nc(-c2cccnc2)n1
inhibition (rep main protease; enzyme activity, inhibitor; 5 µM, run 2): 16.9%

CCC(C(=O)Nc1cc(NC2CCOCC2)ccc1C)n1cc(Cl)cc2nc(SCc3ccc(F)cc3)nc1-2 (stereo not shown)
koff (rep papain-like protease; binding): 0.15 s⁻¹

Cc1ccc(C(=O)Nc2ccc(S(=O)(=O)O)c3cc(S(=O)(=O)O)cc(S(=O)(=O)O)c23)cc1NC(=O)c1cccc(NC(=O)Nc2cccc(C(=O)Nc3cc(C(=O)Nc4ccc(S(=O)(=O)O)c5cc(S(=O)(=O)O)cc(S(=O)(=O)O)c45)ccc3C)c2)c1
Hill slope (rep nsp14 N7-methyltransferase; N7-methyltransferase activity, inhibitor, Py-FLINT): 1.17 ± 0.45

CN1Cc2c(ccc3c2OCO3)-c2ccc3cc4c(cc3c21)OCO4
inhibition (rep main protease; reporter gene (Gaussia luciferase), inhibitor; 20 µM): 1.73%

Cc1cncc(CC(=O)N2CC3(CC[C@H](CNC(=O)[C@@]4(O)CCc5ccccc5C4)O3)C2)c1
inhibition (rep main protease; enzyme activity, inhibitor; 5 µM, run 1): 13.9%

O=C(O)C1=CC(=C(c2ccc(O)c(C(=O)O)c2)c2ccc(O)c(C(=O)O)c2)C=CC1=O
Hill slope (rep nsp14 N7-methyltransferase; N7-methyltransferase activity, inhibitor, Py-FLINT): 0.87 ± 0.06

CC[C@H](C)[C@H](NC(=O)[C@H](CC(C)C)NC(=O)[C@H](Cc1c[nH]c2ccccc12)NC(=O)[C@H](CCC(N)=O)NC(=O)[C@@H](NC(=O)[C@H](Cc1ccccc1)NC(=O)[C@H](C)NC(=O)[C@H](CCCCNC(=O)COCCOCCNC(=O)COCCOCCNC(=O)CC[C@H](NC(=O)CCCCCCCCCCCCCCCCCCC(=O)O)C(=O)O)NC(=O)[C@H](CCC(N)=O)NC(=O)[C@H](C)NC(=O)[C@@H](NC(=O)[C@H](CCCCN)NC(=O)[C@H](CC(=O)O)NC(=O)[C@H](CC(C)C)NC(=O)C(C)(C)NC(=O)[C@@H](NC(=O)[C@H](CO)NC(=O)[C@H](Cc1ccc(O)cc1)NC(=O)[C@H](CC(=O)O)NC(=O)[C@H](CO)NC(=O)[C@@H](NC(=O)[C@H](Cc1ccccc1)NC(=O)[C@@H](NC(=O)CNC(=O)[C@H](CCC(=O)O)NC(=O)C(C)(C)NC(=O)[C@@H](N)Cc1ccc(O)cc1)[C@@H](C)O)[C@@H](C)O)[C@@H](C)CC)[C@@H](C)CC)C(C)C)C(=O)N[C@@H](C)C(=O)NCC(=O)NCC(=O)N1CCC[C@H]1C(=O)N[C@@H](CO)C(=O)N[C@@H](CO)C(=O)NCC(=O)N[C@@H](C)C(=O)N1CCC[C@H]1C(=O)N1CCC[C@H]1C(=O)N1CCC[C@H]1C(=O)N[C@@H](CO)C(N)=O
subjects with adverse event (refers to: treatment-emergent medical device site pruritus; healthy subjects; 4.5 mg, multiple ascending dose): 0%

CC[C@H](NC(C)=O)C(=O)N[C@@H](CCCN)C(=O)N[C@@H](CC(C)C)C(=O)N[C@@H](CCC(N)=O)C(=O)Nc1ccc2c(C)cc(=O)oc2c1
apparent second-order rate constant (rep main protease; substrate; 5% DMSO; pH 7.2, 37 °C): 175 M⁻¹ s⁻¹

CC1=CC(=O)[C@@H](O)[C@]2(C)[C@H]3[C@@H](O)[C@H](O)[C@@]4(C)OC[C@@]35[C@@H](C[C@@H]12)OC(=O)[C@H](O)[C@]54O
activity (rep papain-like protease; enzyme activity; concentration not given): inactive

Cc1cccc(N2CC(C(=O)O)CC2=O)c1 (stereo not shown)
fold enrichment (rep nsp13 helicase; binding, affinity selection mass spectrometry; reference: other proteins in batch): 0.887

O=C(Nc1ccc(-c2nc3ccccc3o2)cc1)c1ccc(NC(=O)c2cc3ccccc3o2)cc1
inhibition (rep main protease; viral replication, mKate2 reporter; SARS-CoV-2; 20 µM): -0.209%

Cc1cncc(CC(=O)N2CCC[C@H]([C@H]3CCN(C(=O)c4cnc5cc(C)ccc5c4)C3)C2)c1
inhibition (rep main protease; enzyme activity, inhibitor; 5 µM, run 1): 11.4%

CC(=O)Nc1ccc2occ(Cc3c(O)ccc4cc(-c5ccccc5)c(=O)oc34)c(=O)c2c1
Hill slope (rep nsp14 N7-methyltransferase; N7-methyltransferase activity, inhibitor, Py-FLINT): 1.07 ± 0.08

catechin gallate
kinact/KI (rep main protease; inactivator): 4.2 M⁻¹ s⁻¹

Nc1ncnc2c([C@@H]3N[C@H](CO)[C@@H](O)[C@H]3O)c[nH]c12
inhibition (Marburg virus; viral replication; HeLa, Angola; 0.8 µM): 33.8%

CC(C)(C)c1ccc(N(C(=O)CCl)C(C(=O)NC2CCCCC2)c2cccnc2)cc1 (stereo not shown)
kon (rep main protease; inhibitor, ITC, irreversible model; 16.7 µM): 390 ± 50 M⁻¹ s⁻¹

O=C(c1ccc(=O)[nH]c1)N1CCCC[C@H](C2CN(C(=O)c3cncc4[nH]ccc34)C2)C1
inhibition (rep main protease; enzyme activity, inhibitor; 5 µM, run 1): 17.5%

CC1(C)CC2(C)OC(=O)NC2(C)c2ccccc21 (stereo not shown)
fold enrichment (rep nsp13 helicase; binding, affinity selection mass spectrometry; reference: other proteins in batch): 1.5

CC(C)C[C@H](NC(=O)OCc1ccccc1)C(=O)N[C@@H](CC(C)C)C(=O)N[C@@H](CC1CCNC1=O)C(=O)C(=O)NC1CC1 (stereo partly shown)
ΔTm (rep main protease; thermal stability, DSF): 18.1 °C

CCCCCCCCCC(C)CCC(C)C(=O)OC (stereo not shown)
activity (rep main protease; binding; concentration not given): inactive

CC(C)[C@H](NC(=O)OCc1ccccc1)C(=O)N[C@H](C=O)Cc1ccccc1
inhibition (rep main protease; reporter gene (Gaussia luciferase), inhibitor; 20 µM): 2.24%

N#C[C@@]1(n2ccc(N)nc2=O)O[C@H](COP(=O)(O)OP(=O)(O)OP(=O)(O)O)[C@@H](O)[C@H]1O
CNC:C mismatch incorporation (Replicase polyprotein 1ab, nsp12 with nsp7/nsp8 (rep, Severe acute respiratory syndrome coronavirus 2, UniProt P0DTD1); 45 min): < 1%

Cc1c(S(=O)(=O)N2CCc3[nH]ncc3C2)cc(C(=O)NCc2c(F)ccc3occc23)n1C
delta Tm (Replicase polyprotein 1ab, nsp14 (rep, Severe acute respiratory syndrome coronavirus 2, UniProt P0DTD1); thermal stability): 20 °C

Clc1cccc(/C=C/c2nn3c(-c4ccco4)nnc3s2)c1
Hill slope (rep nsp14 N7-methyltransferase; N7-methyltransferase activity, inhibitor, Py-FLINT): 1.03 ± 0.09

Cn1cnc(Cn2c(=O)[nH]/c(=N\c3cc4cn(C)nc4cc3Cl)n(Cc3cc(F)c(F)cc3F)c2=O)n1
patients with adverse event (human, severe renal impairment; oral, 375 mg, decreased GFR TEAE, severe severity): 0%

CCN(Cc1cn(C[C@H]2O[C@@H](n3cnc4c(N)ncnc43)[C@H](O)[C@@H]2O)nn1)S(=O)(=O)c1ccc(C(F)(F)F)cc1
remaining binding (rep nsp14 N7-methyltransferase; N7-methyltransferase activity, inhibitor, radioactive filter binding; 50 µM, 0.5 h, 30 °C, with: GpppAC4 RNA, SAM): > 50%

Cn1cc(C(=O)Nc2nc(-c3ccccn3)cs2)c2ccccc2c1=O
Hill slope (rep nsp14 N7-methyltransferase; N7-methyltransferase activity, inhibitor, Py-FLINT): 1.16 ± 0.2

CC(C)=CCC/C(C)=C/COc1ccc2ccc(=O)oc2c1
inhibition (rep main protease; reporter gene (Gaussia luciferase), inhibitor; HEK293T; 20 µM): 1.65%

Cc1cc(=O)[nH]cc1C(=O)N1C[C@@]23CCCC[C@@]2(CN(C(=O)C[C@H]2NC(=O)NC2=O)C3)C1
inhibition (rep main protease; enzyme activity, inhibitor; 5 µM, run 1): 12.9%

C[C@@H]1O[C@@H](Oc2ccc(CN=C=S)cc2)[C@H](O)[C@H](O)[C@H]1O
inhibition (rep main protease; reporter gene (Gaussia luciferase), inhibitor; 20 µM): 0.0955%

O=C(c1cccc(-c2n[nH]c(=O)[nH]2)c1)N1CCO[C@H](c2cn(-c3cccnc3)nn2)C1
inhibition (rep main protease; enzyme activity, inhibitor; 5 µM, run 1): 4.5%

Cc1nn(-c2ccc(Cl)cc2)c2c1C(c1ccc(Cl)cc1Cl)C(C#N)=C(N)O2 (stereo not shown)
inhibition (rep main protease; 3CL protease activity; 0.01 µg/mL, 120 min, enzyme 10 ng/mL): 11.6%

O=C(N[C@@H](CNC(=O)[C@H]1CC12CC2)c1ccc2ccccc2c1)c1cncc2ccccc12
inhibition (rep main protease; enzyme activity, inhibitor; 5 µM, run 2): 18%

Cc1cc(C)c(/C=C2/C(=O)Nc3ccc(Cl)cc32)[nH]1
inhibition (rep main protease; viral replication, Gluc reporter; SARS-CoV-2; 20 µM): 0.935%

O=C(C1=C(O)C(=O)N(c2nc3ccc(F)cc3s2)C1c1cccc(F)c1)c1cccs1 (stereo not shown)
Hill slope (rep nsp14 N7-methyltransferase; N7-methyltransferase activity, inhibitor, Py-FLINT): 1.58 ± 0.28

O=C(c1cccc(CF)c1)N1CCCCC[C@@H](Nc2nc(-c3cccnc3)nc3c2CCC3)C1
inhibition (rep main protease; enzyme activity, inhibitor; 5 µM, run 1): 8.8%

COc1ccc(-c2csc(C3=C(O)CN(/N=C/c4c[nH]c5ccccc45)C3=N)n2)cc1
Hill slope (rep nsp14 N7-methyltransferase; N7-methyltransferase activity, inhibitor, Py-FLINT): 1.16 ± 0.09

O=C(O)c1ccccc1-c1c2cc(Br)c(=O)cc-2oc2[c]([Hg+])c(O)c(Br)cc12
apparent kcat (rep main protease; inhibitor; 0, 5 or 10 µM): 0.0105 ± 0.0035 s⁻¹

Some of these lines once more:
C[C@@H]1O[C@@H](Oc2ccc(CN=C=S)cc2)[C@H](O)[C@H](O)[C@H]1O
inhibition (rep main protease; reporter gene (Gaussia luciferase), inhibitor; 20 µM): 0.0955%

CC1CC(c2ccc(C(=O)O)cc2)=NN1c1ccccc1.N (stereo not shown)
lipophilic ligand efficiency (Replicase polyprotein 1ab, nsp14 methyltransferase (rep, Severe acute respiratory syndrome coronavirus 2, UniProt P0DTD1)): 0.9

Cn1cnc(Cn2c(=O)[nH]/c(=N\c3cc4cn(C)nc4cc3Cl)n(Cc3cc(F)c(F)cc3F)c2=O)n1
patients with adverse event (human, severe renal impairment; oral, 375 mg, decreased GFR TEAE, severe severity): 0%
